Experimental data collected from several papers.
A part holds a random share of what one study measured. Changes are numbered by the printed parent chain.

Set 1
Target: Fragile X messenger ribonucleoprotein 1, C-terminal low-complexity region (Fmr1, Mus musculus, UniProt P35922)
Method: RNA Bind-n-Seq
Form: RNA
Matrix: in vitro
Concentration: 200 nM
Setting: whole 134-nt RNA, ends assumed
With: 150 mM KCl
Relative to: input library
Reading: higher = stronger binding
Quantity: log2 enrichment
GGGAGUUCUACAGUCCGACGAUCGUCCUGUGCUACACAUCGUAUGUACCGAAUCGGCCCCCGGGGCCCCCGGGGCCCCCGGAAAGUAUUAUGUUACGCCGUUCGGAUCUGCACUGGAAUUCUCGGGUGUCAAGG: -1.57
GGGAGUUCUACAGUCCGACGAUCCCUGUGCUACACAUCGUAUGUACCGAAUCGGGAAAAAAGGGGAAAAAAGGGGAAAAAAGGAAAGUAUUAUGUUACGCCGUUCGGAUCUGCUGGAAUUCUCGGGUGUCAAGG: -0.52
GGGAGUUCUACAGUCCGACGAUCACCAUGCAGGUGGGCAUCUUUGGGAAGUGGGGCAAGGGGGGGAUAGGGAGGGGGGUAACACUUUGGGAACAGGUGAAACCAGGUCGUUUCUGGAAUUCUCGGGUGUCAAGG: 0.217
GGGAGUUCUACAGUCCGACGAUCAGUCCUGUGCUACACAUCGUAUGUACCGAAUCAAACCCAAACCCAAACCCCCCCAAAAAAGUAUUAUGUUACGCCGUUCGGAUCUGCACUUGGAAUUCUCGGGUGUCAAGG: -0.186
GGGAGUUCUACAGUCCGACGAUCAGUCCUGUGCUACACAUCGUAUGUACCGAAUCGGCCCCCGGCCCCCGGGCCCCCGGGGAAAGUAUUAUGUUACGCCGUUCGGAUCUGCACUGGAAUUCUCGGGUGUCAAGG: -0.472
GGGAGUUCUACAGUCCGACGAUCGCAGGAAGUAAAAACAAAAGGAAAUGCUUCGGAUAGUGGCAGGGGUGGGGGUUGCUAAGGAAAGGGUGGGAUGGGAGUGGGUAAAGAGUUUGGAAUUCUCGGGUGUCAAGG: 0.248
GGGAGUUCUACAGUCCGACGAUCCCUCAAGUCCUGUGCUACACAUCGUAUGUACCGAAUCGGCGGGGCGGGGCGGGAAAGUAUUAUGUUACGCCGUUCGGAUCUGCACUUCCAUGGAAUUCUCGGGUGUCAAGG: 1.04
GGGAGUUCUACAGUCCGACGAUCACAGGAAGUAAAAACAAAUGGAAAUGCUUCGGAUAGUGGCAGGGGUGGGGGUUGCUAAGGAAAGGGUGGGAUGGGAGUGGGUAAAGAGUUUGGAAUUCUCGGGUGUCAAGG: -0.116

Set 2
Target: Interferon regulatory factor 7, full length, phosphomimetic (IRF7, Homo sapiens, UniProt Q92985, residues 1-503, S471D/S472D/S475D/S476D/S477D/S483D/S484D/S487D)
Method: protein-binding microarray
Form: double-stranded DNA, one strand shown
Matrix: in vitro
Concentration: 2200 nM top
Setting: 60-bp whole probe
With: salmon DNA 0.4 mg/ml
Relative to: random background probes
Reading: higher = stronger binding
Quantity: fitted relative affinity
Constant ends, left off below: GCCTAGCAC … GTCTTGATTCGCTTGACGCTGCTG
Target sequence (chain): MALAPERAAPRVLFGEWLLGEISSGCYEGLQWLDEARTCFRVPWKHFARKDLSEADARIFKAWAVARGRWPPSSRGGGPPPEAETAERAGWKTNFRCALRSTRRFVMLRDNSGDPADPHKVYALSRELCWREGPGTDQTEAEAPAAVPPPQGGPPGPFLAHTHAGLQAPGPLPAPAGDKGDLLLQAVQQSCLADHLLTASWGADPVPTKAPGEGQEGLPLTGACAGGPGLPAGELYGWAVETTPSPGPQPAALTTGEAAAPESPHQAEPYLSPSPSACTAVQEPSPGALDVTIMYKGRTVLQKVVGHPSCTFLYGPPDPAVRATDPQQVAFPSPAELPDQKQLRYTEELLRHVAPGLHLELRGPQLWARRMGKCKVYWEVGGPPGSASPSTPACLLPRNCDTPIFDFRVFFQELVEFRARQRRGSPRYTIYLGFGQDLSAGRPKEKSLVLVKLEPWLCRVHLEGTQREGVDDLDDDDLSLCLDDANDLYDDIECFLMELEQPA
TCAATTTTCAATTCCTGACTGTGCTAG: 2.5 z-score
GACGGTATCAGACTGGAGACGTGCTAG: -0.0716 z-score
TTTGATCTCAGTTTCGATTAGTGCTAG: 6.08 z-score
GACTGTTTGGTCCTGATCCTGTGCTAG: 1.24 z-score
TTAGGTCTCCATATCCTTTAGTGCTAG: 0.949 z-score
TTTCCCATGAGTCTCAATATGTGCTAG: 2.92 z-score
TTAGGTTTCGGTATCGATTAGTGCTAG: 6.67 z-score
GACGGTATCGACACTGGGGATGTGCTA: -0.363 z-score
TTAGGTCTCGGTCTCGTTTAGTGCTAG: 0.957 z-score
GACGATTTCAATTCCGAGACGTGCTAG: 0.93 z-score
GACAGTATCGACACTGGGGACGTGCTA: -0.27 z-score
TCATCTTTGCAGATAAAACTGTGCTAG: 0.714 z-score
TTAGGACTGCTTCTCCTTGAGTGCTAG: 0.566 z-score

Set 3
Target: CCNE2, cyclin fold, Cln2 fusion (human)
Method: yeast growth competition, sequencing
Matrix: yeast
Setting: strong parent motif
Relative to: not given
Reading: higher = stronger binding
Quantity: normalised enrichment score
Parent: RBL1 docking peptide (human); GSAKRRLFGEDPP; partner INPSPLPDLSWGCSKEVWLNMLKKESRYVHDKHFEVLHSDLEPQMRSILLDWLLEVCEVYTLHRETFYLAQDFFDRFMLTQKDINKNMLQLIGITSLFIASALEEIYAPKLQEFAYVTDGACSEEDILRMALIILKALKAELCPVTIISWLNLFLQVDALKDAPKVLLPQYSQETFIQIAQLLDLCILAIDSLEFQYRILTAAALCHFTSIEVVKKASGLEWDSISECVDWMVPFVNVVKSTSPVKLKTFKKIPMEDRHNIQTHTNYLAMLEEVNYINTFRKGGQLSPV
GSAKRRLFGEVPP [D11V]: 3.84
ISAKRRLFGEDPP [G1I]: 4.88
GSAKRYLFGEDPP [R6Y]: 0.555
GSAKRRLFGEDSP [P12S]: 4.25
GSAKRLLFGEDPP [R6L]: 0.71
GCAKRRLFGEDPP [S2C]: 4.81
GSAKSRLFGEDPP [R5S]: 0.483
GSAKRRLMGEDPP [F8M]: 0.585
GSAKKRLLGEDPP [R5K F8L]: 0.0644
GSAKYRLFGEDPP [R5Y]: 0.687
GSAKRRLVGEDPP [F8V]: 0.676
GSAKRRLFFEDPP [G9F]: 5.38
GSAIRRLFGEDPP [K4I]: 2.21
GSAKQRLFGEDPP [R5Q]: -0.0263
GSAQRRLFGEDPP [K4Q]: 0.699

Set 4
Target: ABI1, truncated, D143A, DHFR fusion (Arabidopsis thaliana)
Method: DHFR PCA, deep sequencing
Matrix: yeast
Setting: methotrexate growth selection, single substitutions
With: (+)-ABA 4.8 µM
Relative to: wild-type fitted maximum
Reading: higher = stronger binding
Quantity: relative binding score
Parent: PYL1, truncated, DHFR fusion (Arabidopsis thaliana); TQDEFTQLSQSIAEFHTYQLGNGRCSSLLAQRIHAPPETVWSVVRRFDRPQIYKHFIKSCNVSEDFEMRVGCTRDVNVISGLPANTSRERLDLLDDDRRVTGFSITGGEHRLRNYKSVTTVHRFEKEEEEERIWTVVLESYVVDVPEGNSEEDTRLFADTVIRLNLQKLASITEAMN
Q10S: 79.1%
V70S: 26.3%
V76Y: 25%
Y53W: 70.8%
A175F: 51.9%
V142F: 9.61%
I52F: 60.3%
T73F: 79.1%
L8A: 31.2%
R155T: 59.5%
S140D: -8.2%
T106G: -5.58%
R113P: 41.5%
E128Y: 62.1%
K54D: -1.34%
V143P: -6.54%

Set 5
Target: Histone acetyltransferase KAT6A, winged helix 1, GST fusion (KAT6A, Homo sapiens, UniProt Q92794, residues 1-85)
Method: protein binding microarray
Form: double-stranded DNA, one strand shown
Matrix: in vitro
Concentration: not given
Setting: 8-mer, flanks averaged, mean of 2 arrays, mostly near background
Relative to: not given
Reading: higher = stronger binding
Quantity: E-score
Target sequence (chain): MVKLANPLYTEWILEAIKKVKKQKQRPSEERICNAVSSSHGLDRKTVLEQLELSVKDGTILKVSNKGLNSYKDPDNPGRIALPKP
AGGCATTC: -0.0786
CGTTGCCA: -0.041
GTCTGGAA: -0.123
CTACTTCA: -0.178
ACCACGAT: -0.292
CCAAGGGA: -0.199
CTACCGAG: 0.11
GGTGGATA: -0.0525
CGAAGGAG: -0.0204
AGCACGAA: -0.191
CGACCGCC: 0.271
ATGTGGTG: -0.104
CGCCTCCA: 0.123
AAACACGT: -0.0284
CTCCGTTA: 0.0749
ATCCGATA: 0.072
GCCCAACA: -0.0916
AACGTCCG: 0.163
ATAAAATC: -0.00748
ACGATACG: 0.0211
ATGTTCTC: -0.131
CTTAATAA: -0.0398
CATGATCG: -0.118
CATGCACG: 0.00995
GCGGTGAC: 0.213

Set 6
Target: RNA binding protein fox-1 homolog 2, RRM domain, GST-SBP tag (RBFOX2, Homo sapiens, UniProt O43251-10, residues 100-194)
Method: RNA Bind-n-Seq
Form: RNA
Matrix: in vitro
Concentration: 365 nM
Setting: natural RNA segment, single round, ends assumed
Relative to: no-protein control
Reading: higher = stronger binding
Quantity: RBNS enrichment (R)
Residues (chain): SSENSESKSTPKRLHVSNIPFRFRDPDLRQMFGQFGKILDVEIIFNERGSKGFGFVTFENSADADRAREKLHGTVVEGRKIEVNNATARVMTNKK
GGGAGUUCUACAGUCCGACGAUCUGCGGUGUAGAGGAUGCUCUUGGCCGGCUGGAGCAAGACCUGGCUCCCACCAGAGGGACGUGUGUGUGCCUGCAGACGGCCCGGGAGCUGUGUGUCUCCGCCAGAGUCACUGGAAUUCUCGGGUGCCAA: 0.311
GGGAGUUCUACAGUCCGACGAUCUAUUUAUUUUUAAAAAGAAAAGGUGGAGGAACCAAUAUCAACUUGUACAUAAUGAAAAUAUGCGUGUACAUAUAUUUUCCUUCUUGACACUACUUGAUCAUUAUAUCAAGUGGAAUUCUCGGGUGCCAA: 0.474
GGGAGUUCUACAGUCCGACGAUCUUCUAGUCGGGAGCCCAUGCCCUGGAAAUCCAUCUUUCUUCAUCUUUCCCAUUGACCACUUUGGGUUUGACCUGCACAUCUGCAGUGAGGGCAGAAUUCAACAAGCACAAUGGAAUUCUCGGGUGCCAA: 0.442
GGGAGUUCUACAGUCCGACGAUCCUCUAAGUUUGAGAGAAACCACUCCUCCAAGCUUCUCUGUUUCUUCCCAUUUCCUGUGGUCCUUUUUUUGUCAUCCCUUGAAGGUGCCCUUGAAAUCCUAAUCUAAGACAUGGAAUUCUCGGGUGCCAA: 0.739
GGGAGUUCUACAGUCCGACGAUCAAGAACACCUAAAUUUUUAUGUUUCUUGGCUCAAAAACCAGUUCCAUUUCUAAUGUUGUCCUCACAAGAAGGCUAAUUGGUGGUGAGACAGCAGGGGAGGAGGAAGAGCUUGGAAUUCUCGGGUGCCAA: 0.581
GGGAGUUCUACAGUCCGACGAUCUCCUCCAUCAGAUGCCUGGGCCUCCUCCAUCAGAUGCCUAGGCCUCCUCCAUCAGAUGUCUGGGCCUCCUCCAUCAGAUGCCUGGGCCUCCUCCAUCAGAUGCCUGGGCCUGGAAUUCUCGGGUGCCAA: 0.425
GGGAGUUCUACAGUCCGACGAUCAUGGCCCUGCCUUCUAUGUCACACAUAGGAUUUGGUGUCAUUAGUGUUUGCUGUCAUGCCCCAUGAGUAGCUCCUUACUUGGUCUGCUCAGGGCAUCCUAGGGAAUGUUCUGGAAUUCUCGGGUGCCAA: 0.189
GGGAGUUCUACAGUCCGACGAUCCAAUUAGGGAAAAAUGAGCGGCAAAGGAGCUUUCCCCUUCAGCUGCACUCUAAAGGGGAACAUUUUAAGGAAGUACUAGCAGCUUUGACUCUUCUAUGCUCCUGUUGGUUUGGAAUUCUCGGGUGCCAA: 0.349
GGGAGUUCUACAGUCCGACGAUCUUGCCAGAUCACAUGGCUGGAUGUGAUGUGGGGUGGGGGUGGGGUCAUAUCUGAGACAGCCCUCAGCUGAGGGCUUGUGGGACAGUGUCCAAGCCUCAGGCUGGGCUCAUUGGAAUUCUCGGGUGCCAA: 0.675
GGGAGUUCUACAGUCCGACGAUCUUAAGAUCUUACUGCUUUAUAAAGUGCUUUAUGAAUUAUAGGAAAAUAAACACAUUUUAGAUCUUAGAAAAAAACAAAAAAACAUGGGCUUGUCUUCAGGGUAGUAAAGAUGGAAUUCUCGGGUGCCAA: 1.6
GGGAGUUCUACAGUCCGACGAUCUAAGCGUUCCCUUUCCCCUUCUUAUUUAAGACUUCCCACCUUACUAAAUUACCAGCAAAACAAACCACUCUCCUGUUUGAGUAAAAUGAGAAAGUUAAUAUGUGGCCUCCUGGAAUUCUCGGGUGCCAA: 0.653
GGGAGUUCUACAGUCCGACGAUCAGGGUUCAUUCUCCUAGUGCCCCAAGUCCCCUCCUGCCUGGGGCUGCCCAGGGAUUGGACCUGGACCUGGCCAAGGCCUUUUGUGUGUGUCGCUGCUGCCGGGCAACGUGUGGAAUUCUCGGGUGCCAA: 0.323

Repeated from above (set 5):
ACCACGAT: -0.292
ATGTTCTC: -0.131
GTCTGGAA: -0.123
CGAAGGAG: -0.0204
CCAAGGGA: -0.199
AGCACGAA: -0.191
GCGGTGAC: 0.213
CTCCGTTA: 0.0749
CGTTGCCA: -0.041
CTTAATAA: -0.0398
CTACTTCA: -0.178
